Experimental data pooled from the literature.
Each numbered part is a random draw from the data of one study; scales do not carry over between parts. pIC50: −log10 of the molar value.

Sample 1 — method: universal PBM; molecule type: double-stranded DNA, one strand shown; medium: in vitro; concentration: 600 nM; reading: higher = stronger binding
Target: Sal-like protein 4, full length isoform A (SALL4, Homo sapiens, UniProt Q9UJQ4, residues 1-1053)
Sequence of UniProt Q9UJQ4 (whole entry, looked up): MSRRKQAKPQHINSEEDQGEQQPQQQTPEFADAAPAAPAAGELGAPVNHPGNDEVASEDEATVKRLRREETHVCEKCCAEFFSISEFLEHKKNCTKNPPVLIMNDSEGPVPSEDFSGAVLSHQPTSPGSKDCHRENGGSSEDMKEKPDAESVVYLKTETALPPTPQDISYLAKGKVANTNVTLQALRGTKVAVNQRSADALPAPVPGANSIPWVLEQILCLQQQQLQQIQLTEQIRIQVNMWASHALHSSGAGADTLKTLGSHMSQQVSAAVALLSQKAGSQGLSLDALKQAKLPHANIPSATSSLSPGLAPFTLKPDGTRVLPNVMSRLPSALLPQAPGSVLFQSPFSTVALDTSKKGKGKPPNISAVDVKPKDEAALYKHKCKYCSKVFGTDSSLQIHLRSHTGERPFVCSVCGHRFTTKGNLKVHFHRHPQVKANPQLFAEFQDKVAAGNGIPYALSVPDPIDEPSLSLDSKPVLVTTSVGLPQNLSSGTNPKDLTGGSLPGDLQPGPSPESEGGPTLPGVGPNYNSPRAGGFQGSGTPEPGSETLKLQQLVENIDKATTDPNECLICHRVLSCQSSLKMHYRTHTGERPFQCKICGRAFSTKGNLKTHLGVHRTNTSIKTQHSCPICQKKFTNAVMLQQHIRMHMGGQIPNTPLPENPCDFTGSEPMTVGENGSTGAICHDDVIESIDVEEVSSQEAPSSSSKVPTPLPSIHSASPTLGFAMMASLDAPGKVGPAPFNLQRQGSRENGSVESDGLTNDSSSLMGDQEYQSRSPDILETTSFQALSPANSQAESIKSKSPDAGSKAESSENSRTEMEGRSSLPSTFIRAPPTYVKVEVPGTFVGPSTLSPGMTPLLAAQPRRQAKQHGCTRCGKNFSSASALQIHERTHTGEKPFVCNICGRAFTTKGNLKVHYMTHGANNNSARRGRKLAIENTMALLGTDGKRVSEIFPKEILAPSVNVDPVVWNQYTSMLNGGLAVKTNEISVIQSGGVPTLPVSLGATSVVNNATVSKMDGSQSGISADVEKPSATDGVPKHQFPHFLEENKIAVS
Notes: 8-mer, flanks averaged, mean of replicates
`ACAGCCAT` has an E-score of 0.0112.
The E-score of `TCTTAGAA` is reported as 0.214.
`CACTAGCG` has an E-score of -0.201.
With `GCATGAGA` the E-score was 0.00686.
For `AACAAGTG`, the E-score was 0.0657.
`GAAATCCA` gave an E-score of 0.157.
With `GATAAAGC` the E-score was 0.0767.
With `CATTAGCA` the E-score was 0.118.

Sample 2 — cell line: HEK-293T/ACE2; concentration: 10 µM; time: 16 h; baseline: vehicle
The viability of CC(C)NCC(O)COc1cccc2[nH]ccc12 (centres unmarked) is reported as 102%.
c1ccc2[nH]c(-c3cscn3)nc2c1 has a viability of 100%.
CCC(C)(C)C(=O)O[C@H]1C[C@@H](C)C=C2C=C[C@H](C)[C@H](CC[C@@H]3C[C@@H](O)CC(=O)O3)[C@H]21 gave a viability of 106%.
For Cc1nc(-c2ccc(OCC(C)C)c(C#N)c2)sc1C(=O)O, the viability was 99.4%.

Sample 3 — method: protein-binding microarray; molecule type: double-stranded DNA, one strand shown; medium: in vitro; concentration: 0.8 µM; notes: whole 60-bp probe, no competitor; reading: higher = stronger binding
Target: Centromere-binding protein 1, full length, N-terminal tag (CBF1, Saccharomyces cerevisiae, UniProt P17106, residues 1-351)
Sequence of UniProt P17106 (whole entry, looked up): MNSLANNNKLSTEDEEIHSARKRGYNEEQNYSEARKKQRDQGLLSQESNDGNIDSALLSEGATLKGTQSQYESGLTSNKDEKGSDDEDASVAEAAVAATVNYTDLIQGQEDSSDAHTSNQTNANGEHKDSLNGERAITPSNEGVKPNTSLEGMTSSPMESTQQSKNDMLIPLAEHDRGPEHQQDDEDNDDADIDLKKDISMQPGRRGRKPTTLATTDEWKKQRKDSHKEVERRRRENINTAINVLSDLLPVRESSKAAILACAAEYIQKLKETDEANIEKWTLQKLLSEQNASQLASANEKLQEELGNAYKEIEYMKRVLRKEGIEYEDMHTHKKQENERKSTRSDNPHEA
With `TGTACGAAGCTATACAACGTGCTTATAGTAGTTAGGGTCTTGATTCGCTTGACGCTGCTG` the fluorescence intensity was 607 a.u.
With `CTATCTAAGAGTTGCCGTGCCTTTCCATCCGCTTTCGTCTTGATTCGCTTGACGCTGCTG` the fluorescence intensity was 510 a.u.
`CTATATTGTATGTACCACGCAATTGAAGTTTTCTTCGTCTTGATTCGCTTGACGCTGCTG` has a fluorescence intensity of 526 a.u.
For `GAATTTGTTTCCGCCCATGTGCTCCCTCTACCGTAGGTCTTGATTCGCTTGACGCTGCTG`, the fluorescence intensity was 778 a.u.
`GAAGGGATGTGCTCCCACGTAATGCATTGTGCATAGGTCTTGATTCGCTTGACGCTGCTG` has a fluorescence intensity of 465 a.u.
`GAAGTTTTCGTCGTGCATCAGGAACGATCTTCTTAGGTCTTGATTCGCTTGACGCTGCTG` gave a fluorescence intensity of 554 a.u.
For `CTACTATTATATTATCACGTACGGTATAAGAAGTTCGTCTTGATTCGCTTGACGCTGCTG`, the fluorescence intensity was 724 a.u.
With `GAAATGCGGTCTATTCATGTGCATTCGCATATATAGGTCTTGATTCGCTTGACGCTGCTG` the fluorescence intensity was 532 a.u.

Sample 4 — observed: enzyme activity; action: inhibitor; notes: without DTT
Target: Replicase polyprotein 1ab, main protease (rep, Severe acute respiratory syndrome coronavirus 2, UniProt P0DTD1)
COc1cc(C(=S)N2CCOCC2)ccc1O has a pIC50 of 5.89.
C[C@@](Cc1ccc(O)c(O)c1)(NN)C(=O)O has a pIC50 of 5.44.
COc1cccc(C(=O)CCN[C@@H](C)[C@H](O)c2ccccc2)c1 gave a pIC50 of 5.62.

Sample 5 — method: protein-binding microarray; molecule type: double-stranded DNA, one strand shown; medium: in vitro; concentration: 2200 nM top; notes: 60-bp whole probe; together with: salmon DNA 0.4 mg/ml; baseline: random background probes; reading: higher = stronger binding; all sequences stand within: GCCTAGCAC … GTCTTGATTCGCTTGACGCTGCTG
Target: Interferon regulatory factor 7, full length, phosphomimetic (IRF7, Homo sapiens, UniProt Q92985, residues 1-503, S471D/S472D/S475D/S476D/S477D/S483D/S484D/S487D)
Sequence of UniProt Q92985 (whole entry, unmodified, looked up): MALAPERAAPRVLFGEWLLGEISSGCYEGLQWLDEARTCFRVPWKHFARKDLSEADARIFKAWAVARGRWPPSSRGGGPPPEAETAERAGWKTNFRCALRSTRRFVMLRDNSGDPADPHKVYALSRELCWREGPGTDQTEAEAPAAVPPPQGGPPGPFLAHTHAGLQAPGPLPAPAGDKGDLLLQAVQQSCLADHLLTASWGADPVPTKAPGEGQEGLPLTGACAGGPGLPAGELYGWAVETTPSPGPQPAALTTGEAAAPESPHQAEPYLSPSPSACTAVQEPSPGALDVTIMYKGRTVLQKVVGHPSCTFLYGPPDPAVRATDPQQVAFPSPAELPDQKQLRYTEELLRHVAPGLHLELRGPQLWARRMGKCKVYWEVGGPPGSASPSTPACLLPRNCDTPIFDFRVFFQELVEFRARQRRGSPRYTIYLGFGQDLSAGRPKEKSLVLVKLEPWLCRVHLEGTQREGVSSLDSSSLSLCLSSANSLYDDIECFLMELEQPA
`GACGATTTCGGGTTTGGAGACGTGCTA` — result for “fitted relative affinity”: 4.18 z-score.
Under “fitted relative affinity”, `GACGGATTGCTTATCCTGACGTGCTAG` is recorded as 0.782 z-score.
For `GGGTCTCTTGTTCTCTCTGGGTGCTAG`, “fitted relative affinity” read 0.713 z-score.
`TCATTTCTTTGCTTCACACTGTGCTAG`: “fitted relative affinity” 2.6 z-score.
Under “fitted relative affinity”, `GACGGTTTCCTTATCCTAACGTGCTAG` is recorded as 3.07 z-score.
For `TCATATTTATGTATACAACTGTGCTAG`, “fitted relative affinity” read 1.02 z-score.
For `TCAAACTTCGGCCTCTAACTGTGCTAG`, “fitted relative affinity” read 0.532 z-score.
Under “fitted relative affinity”, `TTAGGTTTCCTTTTCCATTAGTGCTAG` is recorded as 5.08 z-score.

Sample 6 — action: inhibitor; concentration: 20 µM
Target: Replicase polyprotein 1ab, nsp13 helicase (rep, Severe acute respiratory syndrome coronavirus 2, UniProt P0DTD1)
For NCCc1ccccn1, the inhibition was 1.83%.
For O=S(=O)(O)c1ccc(O)cc1, the inhibition was -2.88%.
COc1c(C)c2c(c(O)c1C/C=C(\C)CCC(=O)O)C(=O)OC2 has an inhibition of -2.16%.
The inhibition of CC1(C)OC[C@H](NC(=O)Nc2ccc(Br)cc2Br)[C@H](c2ccccc2)O1 is reported as 9.46%.
The inhibition of Cc1cc(-c2ccc(CC(=O)Nc3ccc(-c4cccnc4)cc3)cc2)ccn1 is reported as -4.39%.
For CN1CCC(=C2c3ccccc3CCn3c(C=O)cnc32)CC1, the inhibition was -2.71%.
O=C(NCC(=O)N1CC[C@H](N[C@H]2CC[C@@](O)(c3ccc(-c4ncccn4)cn3)CC2)C1)c1cccc(C(F)(F)F)c1 gave an inhibition of -0.75%.
Cc1cn2nc([C@@H]3CCCCN3C(=O)c3cc(Cl)ccc3NS(C)(=O)=O)cc2nc1N1CC[C@H](N)C1 gave an inhibition of 7.81%.
For COc1cc(S(C)(=O)=O)ccc1Nc1nc2ccc(-c3ccc(NC(=O)[C@H](C)c4ccc(F)cc4)cc3)cn2n1, the inhibition was 1.69%.
CCOC(=O)c1ncn2c1CN(C)C(=O)c1cc(N=[N+]=[N-])ccc1-2 has an inhibition of 0.13%.
The inhibition of CC(=O)NCCC(=O)N[C@@H](Cc1cnc[nH]1)C(=O)O is reported as -4.06%.
Cc1ccc(C(C)C)c(OCC2=NCCN2)c1 has an inhibition of 5.17%.
CC(=O)OC[C@H]1O[C@@H](n2ccc(=O)[nH]c2=O)[C@H](OC(C)=O)[C@@H]1OC(C)=O has an inhibition of 10.5%.
C[C@]1(c2nc3c(C(N)=O)cccc3[nH]2)CCCN1 gave an inhibition of 3.49%.
The inhibition of O=C(NCCS(=O)(=O)c1ccc(C(F)(F)F)cn1)c1ccc(Cl)cc1 is reported as 2.2%.
The inhibition of CN1CCN(C(=O)O[C@H]2c3nccnc3C(=O)N2c2ccc(Cl)cn2)CC1 is reported as 1.38%.
CCc1cn([C@H]2C[C@H](O)[C@@H](CO)O2)c(=O)[nH]c1=O gave an inhibition of 0.97%.
With O/N=C/c1ccc(-c2ccc(O)c(F)c2)c(Cl)c1O the inhibition was -1.34%.
O=S(=O)(O)NC1CCCCC1 has an inhibition of 5.31%.
CC(C)(O)c1coc(S(=O)(=O)NC(=O)Nc2c3c(cc4c2CCC4)CCC3)c1 gave an inhibition of 0.15%.
O=C(Nc1ccc(C(O)(C(F)(F)F)C(F)(F)F)cc1)c1ccc(C(F)(F)F)cc1 has an inhibition of 3.85%.
For COc1ccc2c(c1)[C@]13CCCC[C@@H]1[C@H](C2)N(C)CC3, the inhibition was 0.69%.
For COc1cc2nc(N3CCN(C(=O)COc4c(OC)cccc4C(C)C)CC3)nc(N)c2cc1OC, the inhibition was 6.79%.
With CC(C)Cn1cnc2c1c(=O)n(C)c(=O)n2C the inhibition was -7.64%.
COc1cc2c(=O)c(-c3ccc(O)cc3)coc2cc1O gave an inhibition of 2.34%.

Some of these lines once more (sample 1):
`ACAGCCAT` has an E-score of 0.0112.
The E-score of `TCTTAGAA` is reported as 0.214.
`CACTAGCG` has an E-score of -0.201.
With `GCATGAGA` the E-score was 0.00686.
For `AACAAGTG`, the E-score was 0.0657.
`GAAATCCA` gave an E-score of 0.157.
With `GATAAAGC` the E-score was 0.0767.
With `CATTAGCA` the E-score was 0.118.
